Measurements collected from several papers.
Parts stem from different laboratories: compare values within a part only. Positions count from the first letter of the parent shown.

Block 1 — target: CCND3, cyclin fold, Cln2 fusion (human); technique: yeast growth competition, sequencing; matrix: yeast; setting: weak parent motif; reference: not given; reading: higher = stronger binding
Starting sequence: PKN2 docking peptide (human); VSAVRKLDFSDTM; partner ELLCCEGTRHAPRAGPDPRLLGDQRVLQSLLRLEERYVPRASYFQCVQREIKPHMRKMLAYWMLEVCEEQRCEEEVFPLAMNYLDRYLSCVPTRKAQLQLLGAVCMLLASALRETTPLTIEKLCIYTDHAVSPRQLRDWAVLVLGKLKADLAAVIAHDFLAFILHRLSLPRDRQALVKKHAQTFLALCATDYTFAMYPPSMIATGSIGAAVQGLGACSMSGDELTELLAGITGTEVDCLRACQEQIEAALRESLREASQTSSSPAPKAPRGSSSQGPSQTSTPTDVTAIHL
Variant | normalised enrichment score
S2G | 1.19
S10R | 0.488
S10T | 0.948
A3G | 0.146
A3T | 0.0724
S10Q | 0.758
L7K | 0.138
D11R | 0.385
L7D | -0.0425
K6S | 0.485
K6D | -0.119
D8T | 0.346
F9T | -0.0318
L7N | -0.0147
A3I | -0.0721

Block 2 — technique: DHFR PCA, deep sequencing; matrix: yeast; together with: (+)-ABA 0 µM; reference: wild-type fitted maximum; reading: higher = stronger binding
Target: ABI1, truncated, D143A, DHFR fusion (Arabidopsis thaliana)
Setting: methotrexate growth selection, single substitutions
Starting sequence: PYL1, truncated, DHFR fusion (Arabidopsis thaliana); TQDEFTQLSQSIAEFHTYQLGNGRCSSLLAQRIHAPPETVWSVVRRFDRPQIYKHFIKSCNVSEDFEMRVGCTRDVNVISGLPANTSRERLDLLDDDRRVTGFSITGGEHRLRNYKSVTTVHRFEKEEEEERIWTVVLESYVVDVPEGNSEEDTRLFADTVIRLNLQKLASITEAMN; partner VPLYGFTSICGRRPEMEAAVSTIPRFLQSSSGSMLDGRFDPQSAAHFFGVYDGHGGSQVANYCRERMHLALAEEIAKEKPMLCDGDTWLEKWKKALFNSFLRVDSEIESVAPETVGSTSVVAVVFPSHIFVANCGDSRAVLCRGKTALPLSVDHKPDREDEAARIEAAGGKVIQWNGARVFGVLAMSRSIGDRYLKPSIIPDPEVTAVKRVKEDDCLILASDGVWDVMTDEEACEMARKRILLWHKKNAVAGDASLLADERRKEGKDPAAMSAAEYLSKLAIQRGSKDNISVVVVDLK
Variant | relative binding score
K126E | 34.8%
V142F | -8.53%
T106C | 8.2%
T73I | 34.6%
N61A | 33.1%
I172M | 0.981%
H122M | -1.34%
V136P | -10.6%
E127K | 45.5%
C72Y | 1.21%
Y18H | 42.1%
K54D | 0.168%
S9D | 9.55%
V136G | -11.8%

Block 3 — technique: protein-binding microarray; form: double-stranded DNA, one strand shown; matrix: in vitro; concentration: 2540 nM top; setting: 60-bp whole probe; together with: salmon DNA 0.4 mg/ml; reference: random background probes; reading: higher = stronger binding; constant ends, left off below: GCCTAGCAC … GTCTTGATTCGCTTGACGCTGCTG
Target: Interferon regulatory factor 3, full length, phosphomimetic (IRF3, Homo sapiens, UniProt Q14653, residues 1-427, S386D/S396D/S398D/S402D/T404D/S405D)
Chain of UniProt Q14653 (whole entry, unmodified, looked up): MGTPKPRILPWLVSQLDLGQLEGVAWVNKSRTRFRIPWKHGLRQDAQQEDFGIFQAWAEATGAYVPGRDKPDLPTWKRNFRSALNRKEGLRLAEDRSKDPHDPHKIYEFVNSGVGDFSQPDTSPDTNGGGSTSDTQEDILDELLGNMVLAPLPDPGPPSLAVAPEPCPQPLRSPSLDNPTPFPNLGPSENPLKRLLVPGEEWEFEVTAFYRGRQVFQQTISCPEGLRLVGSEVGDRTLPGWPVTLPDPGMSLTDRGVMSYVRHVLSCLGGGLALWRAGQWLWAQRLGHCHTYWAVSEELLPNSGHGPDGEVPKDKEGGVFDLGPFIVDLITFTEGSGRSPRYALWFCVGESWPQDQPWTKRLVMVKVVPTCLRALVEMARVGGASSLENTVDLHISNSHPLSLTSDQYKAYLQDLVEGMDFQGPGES
Strand | fitted relative affinity [z-score]
TTAGGTATCGACTATCGATTAGTGCTA | 0.628
TGTGGTGCAGCTCCCTCCTCGTGCTAG | -0.724
ATGTTTGTCACTCTCAGAATGTGCTAG | 1.24
TCACATTTGGTTAGCGTACTGTGCTAG | 0.74
AGTGGTATAGCACTAAGGGAGTGCTAG | -0.559
TTAGGTATCGGTTTCGGTTCGTGCTAG | 9.42
GACGACATCAGACTGGAGACGTGCTAG | -0.329
TTAGGTATCGGTATCGGTGAGTGCTAG | 4.54
TGCTGTCTCAGAGTCCTCTGGTGCTAG | -0.294
TTAGGAGTGGGTATCGGTTAGTGCTAG | 0.323
GACGGTCTCCTAGTGCTGACGTGCTAG | 0.923
AGGTGGGAGGGGACAGTGGTGTGCTAG | -0.834
TTAGGTTACGGGACTGGGTTAGTGCTA | -0.193
TTAGGTTTCGGTGCCGGTTAGTGCTAG | 4.89
TCATAAGTTTCACTCTGCACTGTGCTA | 2.77
AACAGTTCATGTTTTGGAAAGTGCTAG | 0.894
GACGATATCGGGACTAGAGACGTGCTA | 0.191
ATAGGTATCCTACTGCTTTAGTGCTAG | 2.44
AACGATCTCAGTTTCGAGACGTGCTAG | 2.56
GACGGATTCGGTATCGGGACGTGCTAG | 3.58
GACCGACTGCTACTGCTGACGTGCTAG | -0.366
TTAGGTATCGGTAGCGGTTAGTGCTAG | 1.53
TTGGATATCAGACTGGATTAGTGCTAG | -0.193
TCAGTTTTCATTTTCTGACTGTGCTAG | 5.79

Block 4 — technique: RNA Bind-n-Seq; form: RNA; matrix: in vitro; concentration: not given; reference: input RNA pool; reading: higher = stronger binding
Target: RING finger protein unkempt homolog, zinc fingers 1-6, GST-SBP tag (UNK, Homo sapiens, UniProt Q9C0B0, residues 30-357)
Setting: RNA with constant flanks, human-mouse chimeric sites, ends assumed
Constant ends, left off below: GGGAGUUCUACAGUCCGACGAUC … CAACAGAGGAUUGAGCAUCA
Construct (chain): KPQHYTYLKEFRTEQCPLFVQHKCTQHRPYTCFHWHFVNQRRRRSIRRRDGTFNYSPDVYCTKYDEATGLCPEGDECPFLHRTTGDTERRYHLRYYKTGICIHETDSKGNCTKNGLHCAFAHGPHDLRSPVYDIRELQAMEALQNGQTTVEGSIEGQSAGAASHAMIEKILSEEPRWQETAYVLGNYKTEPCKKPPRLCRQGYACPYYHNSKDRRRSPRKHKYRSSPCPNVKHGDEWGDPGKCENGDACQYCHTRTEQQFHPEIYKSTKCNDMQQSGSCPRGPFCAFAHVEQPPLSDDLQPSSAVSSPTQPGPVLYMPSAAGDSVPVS
Strand | bound/input enrichment
UCAUUUUUCUCUUUUCUUUCUUUCCUUUAGGAAAAGCAGAUUAGACUGGUUGUAAGAAAAACAGAAGCCAUGUUUCGAAGACCUGUAUUACAGGUAUUUCGUCAGUUUGUAAGACAUGAG | 0.442 ratio
GCUCCUCCCCGCUCUGCAGCCUGGGGACACUGGGCUGGGACCAGAAUCCAGCUUUCUUUUAAAACUCUCAGUGUAACUGUAUCCCGUUUUUUUCUUUUUUUUUUAAAAGAAAAAAACUUU | 0.419 ratio
UUUGUUUGUAACUUAUCUCUGUAAAAGGUUUCUCCCUUACUGUCAAAAAAUAUGCAUGUAUAGUAAUUAGGACUUCAUUCCUCCAUGUUUUCUUCCCUUAUCUUACUGUCAUUGUCCUUA | 1.01 ratio
CACACACUCUUCUGUGGGACCCUCAUCUUGCAGGCCCGGGCCUAUGUGGGACCGCACGUGCUAGCAGUGGUGACCCGCACAGGGUUCUGCACGGCAAAAGGGGGCCUGGUGAGCUCCAUC | 0.0993 ratio
GGAUCUUUGGGACUGUUUUACUUAAUUGGUCAUUGAUAGCUUAACAAACAUGGAGAUAAGAUUAGAAAUCUUGACAUCAACAGGUAUCAAGCAGAAAAAACCAUGGCCACGUGUCUCCUG | 0.181 ratio
UUGAAAACUGAUUCAAGUAAGUUUGAGUAUCACAAUGUUAGCUUUCUAAUUCCAUAAAAGUACUUGGUUUUUACAGUUUAUAAUCUGACAUCACCCCCCGUUUAUAAGUAAAGAGCAACU | 0.926 ratio

Block 5 — technique: protein-binding microarray; form: double-stranded DNA, one strand shown; matrix: in vitro; concentration: 0.8 µM; setting: whole 60-bp probe, no competitor; reading: higher = stronger binding; constant ends, left off below: … GTCTTGATTCGCTTGACGCTGCTG
Target: Centromere-binding protein 1, full length, N-terminal tag (CBF1, Saccharomyces cerevisiae, UniProt P17106, residues 1-351)
Chain of UniProt P17106 (whole entry, looked up): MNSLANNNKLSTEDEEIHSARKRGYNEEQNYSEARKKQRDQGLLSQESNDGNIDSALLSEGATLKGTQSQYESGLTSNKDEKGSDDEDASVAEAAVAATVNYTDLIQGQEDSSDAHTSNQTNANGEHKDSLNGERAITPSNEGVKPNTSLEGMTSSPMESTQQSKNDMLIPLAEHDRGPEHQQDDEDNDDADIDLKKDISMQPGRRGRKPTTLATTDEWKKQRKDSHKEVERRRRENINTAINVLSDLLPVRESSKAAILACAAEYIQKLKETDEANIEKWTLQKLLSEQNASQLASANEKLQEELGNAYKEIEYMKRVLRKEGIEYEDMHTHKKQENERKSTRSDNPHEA
Strand | fluorescence intensity [a.u.]
CCTAACTACTATAAACACGGGTAATAGCTTCGTACA | 533
GAAACCCTAGATCACCTCATGATATCCTTTTGATAG | 544
CTATCTGATATTAATCACATGTATATCTCAATTTTC | 2240
TGTACGAAGCTATCGCACGTGGCTATAGTAGTTAGG | 3980
GAATTTGATAGGAACGACGTGGTGTAGTGAATTTAG | 526
CCTAACTACTATATTCACGTTAAATAGCTTCGTACA | 551
GAACTTGAAATGGTGATCATGACCTTTTGAACATAG | 644
CTATGGTAATGAGGGCTGGTCACAGATTACCTTTTC | 513
GAACAGGGAGTTCATCATCAGAATGATTAGTATTAG | 527
TGTACGAAGCTATGTGAGGTGACTATAGTAGTTAGG | 501
CTAGAACTCTTTCAACACCTGACGAATGTATAATTC | 865
TGTACGAAGCTATCTCATGTCACTATAGTAGTTAGG | 567
CTATGTGCAAGACAACAGCTGACAAGATGATGGTTC | 657
CTACGAGAATTTGGGCACATGTGACCCGGAATGTTC | 11000
CTAGTATTCATTTCTCACCTGCCAATGCAAGAGTTC | 566
CTATTCAGATTGCATCATCAGAAAAGTAAAAATTTC | 534
GAAAATCGTGGAGATCATGTGTGCCAGAAAAGGTAG | 1450
CTAATTGCTCAACAAAGCGTGTCTTTTTCTGTGTTC | 507
CTATATTTAAGGGTATACGTGCTACGGTCCACTTTC | 525
CTATTATGAGACTGTATCATGACCATACCTTATTTC | 553
GAACCCCTCATTCCAGGCGTGACGGGATTTCTTTAG | 681

For quick reference, copied from above (block 4):
Strand | bound/input enrichment
UCAUUUUUCUCUUUUCUUUCUUUCCUUUAGGAAAAGCAGAUUAGACUGGUUGUAAGAAAAACAGAAGCCAUGUUUCGAAGACCUGUAUUACAGGUAUUUCGUCAGUUUGUAAGACAUGAG | 0.442 ratio
GCUCCUCCCCGCUCUGCAGCCUGGGGACACUGGGCUGGGACCAGAAUCCAGCUUUCUUUUAAAACUCUCAGUGUAACUGUAUCCCGUUUUUUUCUUUUUUUUUUAAAAGAAAAAAACUUU | 0.419 ratio
UUUGUUUGUAACUUAUCUCUGUAAAAGGUUUCUCCCUUACUGUCAAAAAAUAUGCAUGUAUAGUAAUUAGGACUUCAUUCCUCCAUGUUUUCUUCCCUUAUCUUACUGUCAUUGUCCUUA | 1.01 ratio
CACACACUCUUCUGUGGGACCCUCAUCUUGCAGGCCCGGGCCUAUGUGGGACCGCACGUGCUAGCAGUGGUGACCCGCACAGGGUUCUGCACGGCAAAAGGGGGCCUGGUGAGCUCCAUC | 0.0993 ratio
GGAUCUUUGGGACUGUUUUACUUAAUUGGUCAUUGAUAGCUUAACAAACAUGGAGAUAAGAUUAGAAAUCUUGACAUCAACAGGUAUCAAGCAGAAAAAACCAUGGCCACGUGUCUCCUG | 0.181 ratio
UUGAAAACUGAUUCAAGUAAGUUUGAGUAUCACAAUGUUAGCUUUCUAAUUCCAUAAAAGUACUUGGUUUUUACAGUUUAUAAUCUGACAUCACCCCCCGUUUAUAAGUAAAGAGCAACU | 0.926 ratio
